Measurements gathered from unrelated publications.
Protocols differ between the studies behind these lines. Numbers after ± are the reported error.

| Compound | assay | test system | conditions | half-life [min] |
| --- | --- | --- | --- | --- |
| CN[C@@H]1[C@H](O)[C@H](NC)[C@H]2O[C@]3(O)[C@H](O[C@@H]2[C@H]1O)O[C@H](C)C[C@@]3(O)CNCc1ccc(F)cc1 |  | rat liver microsomes |  | 408 |
| CC(C)[C@H](NC(=O)[C@H]1CCC[C@@H]1NC(=O)[C@H](CC(N)=O)NC(=O)[C@H](CCCNC(=N)N)NC(=O)[C@H]1CCC[C@@H]1NC(=O)[C@@H](N)Cc1ccccc1)C(=O)N[C@@H](Cc1ccccc1)C(=O)N[C@H]1CCC[C@@H]1C(=O)N[C@@H](Cc1ccccc1)C(=O)N[C@@H](Cc1ccc(O)cc1)C(=O)N[C@H]1CCC[C@@H]1C(=O)N[C@H](C(=O)N[C@@H](CC(=O)O)C(N)=O)[C@@H](C)O | LC-MS | human serum | 10 µM, 37 °C | 22.8 |
| CC[C@H](C)[C@H](NC(=O)[C@H](CCCN)NC(=O)[C@H](CC(N)=O)NC(=O)[C@H](Cc1c[nH]c2ccccc12)NC(=O)[C@H](Cc1ccccc1)NC(=O)[C@H](CCCN)NC(=O)[C@H](CCCCNC(=N)N)NC(=O)[C@H](CC(C)C)NC(=O)[C@H](Cc1c[nH]c2ccccc12)NC(=O)[C@H](CCCN)NC(=O)[C@H](CCCCNC(=N)N)NC(=O)[C@H](CC(C)C)NC(=O)CNC(C)=O)C(=O)N[C@@H](CCCN)C(=O)N[C@@H](CCCCNC(=N)N)C(N)=O | HPLC | 25% human plasma | 37 °C | 14100 |
| Cc1ccc(OCCN(C)C)cc1C(=O)N[C@H](C)c1cc(-c2cnn(C)c2)cc(-c2cnn(CCN3CCOCC3)c2)c1 |  | mouse liver microsomes |  | > 145 |
| CC(C)C(N)C(=O)OCC(=O)C1(O)CCC2C3CCC4=CC(=O)C=CC4(C)C3C(O)CC21C (centres unmarked) |  | SIRC cell homogenate | pH 7.4, 37 °C | 16.6 ± 0.2 |
| c1cc2c(s1)CCOC21CCN(Cc2ccc3c(c2)OCCO3)CC1 |  | mouse liver microsomes |  | < 3 |
| CC(COC(=O)c1ccccc1)OC(=O)C(N)C(C)C (mixture of isomers) |  | 90% rat intestinal perfusate | 100 µM | > 120 |
| Cc1ccc(OCCN(C)C)cc1C(=O)N[C@H](C)c1cc(-c2cnn(C)c2)cc(-c2cnn(C(F)F)c2)c1 |  | mouse liver microsomes |  | 76.7 |
| CC[C@H](C)[C@@H]1NC(=O)[C@H](Cc2ccc(O)cc2)NC(=O)[C@@H](N)Cc2cn(nn2)CCCC[C@@H](C(=O)N2CCC[C@H]2C(=O)N[C@@H](CC(C)C)C(=O)NCC(N)=O)NC(=O)[C@H](CC(N)=O)NC(=O)[C@H](CCC(N)=O)NC1=O | RP-HPLC-MS | human pregnancy serum | 37 °C | > 2880 |
| C[C@H](N)C(=O)N[C@@H](CCCCN)C(=O)NCC(=O)N[C@@H](Cc1cccc(I)c1)C(=O)O |  |  | 50 µM, pH 7.4, 25 °C, together with: trypsin | 21 |
| CC[C@H](C)[C@H](NC(=O)[C@H](CC(N)=O)NC(=O)[C@@H]1CCCN1C(=O)[C@H](CO)NC(=O)[C@H](CC(N)=O)NC(=O)[C@@H](N)CCC(N)=O)C(=O)N[C@@H](Cc1ccccc1)C(=O)NCC(=O)N[C@@H](CCC(N)=O)C(=O)N[C@@H](Cc1c[nH]c2ccccc12)C(=O)N[C@@H](CCSC)C(=O)O |  | PBS with chymotrypsin | 0.28 mM, pH 7.2, 37 °C, together with: chymotrypsin 50 nM | 120 |
| CNc1nc(SC)nc2ccccc12 |  | mouse liver microsomes |  | < 3 |
| Cc1ccc2nc(C)c(C(=O)NCc3ccc(C(F)(F)F)cc3)n2c1 |  | human liver microsomes | 2 µM | 30 |
| COc1ccc2nc(C)cc(OCC(=O)Nc3cc(C)cc(C)c3)c2c1 |  | human liver microsomes |  | 17.5 |
| COc1ccc(Cn2cnc3cc(C)c(C)cc32)cc1 |  | mouse liver microsomes |  | < 2 |
| N#Cc1ccc(NC(=O)c2cccnc2)cc1Cl | plasma stability | mouse plasma | 5 µM, 37 °C | > 120 |
| C/C(=N\OCCCN1CCCCC1)c1ccc(C(F)(F)F)cc1 |  | human plasma |  | > 770 |
| CC(COC(=O)c1ccccc1)OC(=O)C(N)Cc1ccccc1 (mixture of isomers) |  | isotonic buffer | pH 1.2, 37 °C | > 1800 |
| CCC(CC)OC1C=C(C(=O)OC(C)OC(=O)C(N)C(C)C)CC(NC(=N)N)C1NC(C)=O (mixture of isomers) |  | Caco-2 cell homogenate | pH 7.4, 37 °C, 500 µg/mL protein | 14.3 ± 7.7 |
| CC(=O)N[C@@H](Cc1ccc(O)cc1)C(=O)N[C@@H](CCCNC(=N)N)C(=O)N[C@@H](Cc1ccccc1)C(=O)N[C@H]1CCC[C@@H]1C(=O)N[C@@H](CCCNC(=N)N)C(=O)N[C@@H](CC(N)=O)C(=O)N[C@H]1CCC[C@@H]1C(=O)N[C@H](C(=O)N[C@@H](Cc1ccccc1)C(=O)N[C@H]1CCC[C@@H]1C(=O)N[C@@H](Cc1ccccc1)C(=O)N[C@@H](Cc1ccc(O)cc1)C(=O)N[C@H]1CCC[C@@H]1C(=O)N[C@H](C(=O)N[C@@H](CC(=O)O)C(N)=O)[C@@H](C)O)C(C)C | LC-MS | human serum | 10 µM, 37 °C | 144 |
| N=C(N)NCCC[C@@H]1NC(=O)[C@H](CCCNC(=N)N)NC(=O)[C@H](CCCNC(=N)N)NC(=O)[C@H](CCCNC(=N)N)NC(=O)[C@H](Cc2c[nH]c3ccccc23)NC(=O)[C@H](CCCNC(=N)N)NC(=O)[C@H](CCCNC(=N)N)NC(=O)[C@@H](N)CCCCn2cc(nn2)C[C@@H](C(N)=O)NC1=O | trypsin degradation, HPLC | PBS | pH 7.4, 37 °C, together with: trypsin 0.1 ng/mL | 22.3 |
| CSCC[C@H](NC(=O)CNC(=O)CNC(=O)[C@H](CO)NC(=O)[C@H](CC(C)C)NC(=O)[C@@H]1CCCN1C(=O)[C@H](CO)NC(=O)[C@H](CC(N)=O)NC(=O)[C@H](CC(C)C)NC(=O)[C@H](C)NC(=O)[C@@H](NC(=O)[C@H](CC(C)C)NC(=O)[C@H](Cc1c[nH]cn1)NC(=O)[C@H](CC(C)C)NC(=O)[C@@H](NC(=O)[C@@H]1CCCN1C(=O)[C@H](CCC(N)=O)NC(=O)[C@H](Cc1ccccc1)NC(=O)[C@H](CC(=O)O)NC(=O)[C@H](CCCNC(=N)N)NC(=O)[C@H](Cc1c[nH]cn1)NC(=O)[C@H](CO)NC(=O)[C@H](Cc1c[nH]cn1)NC(=O)[C@H](CCSC)NC(=O)[C@H](CC(=O)O)NC(=O)CNC(=O)[C@H](CCCNC(=N)N)NC(=O)[C@H](CC(=O)O)NC(=O)CNC(=O)[C@@H](N)CCCNC(=N)N)C(C)C)C(C)C)C(N)=O | metabolic stability | cynomolgus monkey liver homogenate | 20 µg/mL, 37 °C | 3.23 ± 0.1 |
| CC[C@H](C)[C@@H]1NC(=O)[C@H](Cc2ccc(O)cc2)NC(=O)[C@@H](N)CSCSC[C@@H](C(=O)N2CCC[C@H]2C(=O)N[C@@H](CC(C)C)C(=O)NCC(N)=O)NC(=O)[C@H](CC(N)=O)NC(=O)[C@H](CCC(N)=O)NC1=O |  | phosphate buffer | 0.1 mg/mL, pH 2.0, 40 °C | 38900 ± 576 |
| CC(C)C[C@@H]1NC(=O)Cc2ccc(nc2)-c2ccc(nc2)CSC[C@@H](C(=O)N[C@@H](CCC(=O)O)C(=O)N[C@@H](CC(C)C)C(=O)N[C@@H](Cc2c[nH]cn2)C(=O)N2CCC[C@H]2C(=O)N[C@@H](CC(C)C)C(=O)N[C@@H](CCCCN)C(=O)N2CCC[C@H]2C(=O)NCC(=O)N[C@@H](CS)C(=O)NCC(N)=O)NC(=O)[C@H](Cc2ccc(O)cc2)NC(=O)[C@H](CCCCN)NC(=O)[C@H](CCC(N)=O)NC(=O)[C@H](C(C)C)NC1=O |  | human serum | 10 µM, 37 °C | 1560 |
| CCc1ccc([C@@H]2C[C@H](C(F)(F)F)n3ncc(C(=O)NCc4ccc(OC)cc4)c3N2)cc1 |  | mouse liver microsomes |  | > 30 |
| O=C(Cc1ccc2ccccc2c1)N[C@H](Cc1ccccc1)C(=O)N[C@H](Cc1ccc(OP(=O)(O)O)cc1)C(=O)N[C@H](Cc1ccccc1)C(=O)N[C@H](Cc1ccc(OP(=O)(O)O)cc1)C(=O)O | substrate | HepG2 cell lysate | 500 µM, pH 7.4, 37 °C | > 900 |
| CC(C)[C@H](N)C(=O)OCOC(=O)c1ccccc1.O=C(O)C(F)(F)F |  | isotonic buffer | pH 6.0, 37 °C | 3.5 |
| C=CC1CN2CCC1CC2C(O)c1c(-c2ccc(N=Nc3ccccc3)cc2)cnc2ccc(OC)cc12 (centres unmarked) | reductive degradation | solution | cis isomer, together with: 10 mM glutathione | 143 |
| C#Cc1c(F)ccc2cc(O)cc(-c3ncc4c(N5CC6CCC(C5)N6C(=O)OC(C)OC(=O)CCCC)nc(OC[C@@]56CCCN5C[C@H](F)C6)nc4c3F)c12 (some centres unmarked) |  | mouse whole blood | 1 µM | 3.83 |

For quick reference, copied from above:
| Compound | assay | test system | conditions | half-life [min] |
| --- | --- | --- | --- | --- |
| CCC(CC)OC1C=C(C(=O)OC(C)OC(=O)C(N)C(C)C)CC(NC(=N)N)C1NC(C)=O (mixture of isomers) |  | Caco-2 cell homogenate | pH 7.4, 37 °C, 500 µg/mL protein | 14.3 ± 7.7 |
| CC(=O)N[C@@H](Cc1ccc(O)cc1)C(=O)N[C@@H](CCCNC(=N)N)C(=O)N[C@@H](Cc1ccccc1)C(=O)N[C@H]1CCC[C@@H]1C(=O)N[C@@H](CCCNC(=N)N)C(=O)N[C@@H](CC(N)=O)C(=O)N[C@H]1CCC[C@@H]1C(=O)N[C@H](C(=O)N[C@@H](Cc1ccccc1)C(=O)N[C@H]1CCC[C@@H]1C(=O)N[C@@H](Cc1ccccc1)C(=O)N[C@@H](Cc1ccc(O)cc1)C(=O)N[C@H]1CCC[C@@H]1C(=O)N[C@H](C(=O)N[C@@H](CC(=O)O)C(N)=O)[C@@H](C)O)C(C)C | LC-MS | human serum | 10 µM, 37 °C | 144 |
| N=C(N)NCCC[C@@H]1NC(=O)[C@H](CCCNC(=N)N)NC(=O)[C@H](CCCNC(=N)N)NC(=O)[C@H](CCCNC(=N)N)NC(=O)[C@H](Cc2c[nH]c3ccccc23)NC(=O)[C@H](CCCNC(=N)N)NC(=O)[C@H](CCCNC(=N)N)NC(=O)[C@@H](N)CCCCn2cc(nn2)C[C@@H](C(N)=O)NC1=O | trypsin degradation, HPLC | PBS | pH 7.4, 37 °C, together with: trypsin 0.1 ng/mL | 22.3 |
| CSCC[C@H](NC(=O)CNC(=O)CNC(=O)[C@H](CO)NC(=O)[C@H](CC(C)C)NC(=O)[C@@H]1CCCN1C(=O)[C@H](CO)NC(=O)[C@H](CC(N)=O)NC(=O)[C@H](CC(C)C)NC(=O)[C@H](C)NC(=O)[C@@H](NC(=O)[C@H](CC(C)C)NC(=O)[C@H](Cc1c[nH]cn1)NC(=O)[C@H](CC(C)C)NC(=O)[C@@H](NC(=O)[C@@H]1CCCN1C(=O)[C@H](CCC(N)=O)NC(=O)[C@H](Cc1ccccc1)NC(=O)[C@H](CC(=O)O)NC(=O)[C@H](CCCNC(=N)N)NC(=O)[C@H](Cc1c[nH]cn1)NC(=O)[C@H](CO)NC(=O)[C@H](Cc1c[nH]cn1)NC(=O)[C@H](CCSC)NC(=O)[C@H](CC(=O)O)NC(=O)CNC(=O)[C@H](CCCNC(=N)N)NC(=O)[C@H](CC(=O)O)NC(=O)CNC(=O)[C@@H](N)CCCNC(=N)N)C(C)C)C(C)C)C(N)=O | metabolic stability | cynomolgus monkey liver homogenate | 20 µg/mL, 37 °C | 3.23 ± 0.1 |
